Assay results gathered from unrelated publications.
Numbered parts are unrelated; each lists some results of a single study.

Sample 1
Target: Sal-like protein 4, full length isoform A (SALL4, Homo sapiens, UniProt Q9UJQ4, residues 1-1053)
Sequence of UniProt Q9UJQ4 (whole entry, looked up): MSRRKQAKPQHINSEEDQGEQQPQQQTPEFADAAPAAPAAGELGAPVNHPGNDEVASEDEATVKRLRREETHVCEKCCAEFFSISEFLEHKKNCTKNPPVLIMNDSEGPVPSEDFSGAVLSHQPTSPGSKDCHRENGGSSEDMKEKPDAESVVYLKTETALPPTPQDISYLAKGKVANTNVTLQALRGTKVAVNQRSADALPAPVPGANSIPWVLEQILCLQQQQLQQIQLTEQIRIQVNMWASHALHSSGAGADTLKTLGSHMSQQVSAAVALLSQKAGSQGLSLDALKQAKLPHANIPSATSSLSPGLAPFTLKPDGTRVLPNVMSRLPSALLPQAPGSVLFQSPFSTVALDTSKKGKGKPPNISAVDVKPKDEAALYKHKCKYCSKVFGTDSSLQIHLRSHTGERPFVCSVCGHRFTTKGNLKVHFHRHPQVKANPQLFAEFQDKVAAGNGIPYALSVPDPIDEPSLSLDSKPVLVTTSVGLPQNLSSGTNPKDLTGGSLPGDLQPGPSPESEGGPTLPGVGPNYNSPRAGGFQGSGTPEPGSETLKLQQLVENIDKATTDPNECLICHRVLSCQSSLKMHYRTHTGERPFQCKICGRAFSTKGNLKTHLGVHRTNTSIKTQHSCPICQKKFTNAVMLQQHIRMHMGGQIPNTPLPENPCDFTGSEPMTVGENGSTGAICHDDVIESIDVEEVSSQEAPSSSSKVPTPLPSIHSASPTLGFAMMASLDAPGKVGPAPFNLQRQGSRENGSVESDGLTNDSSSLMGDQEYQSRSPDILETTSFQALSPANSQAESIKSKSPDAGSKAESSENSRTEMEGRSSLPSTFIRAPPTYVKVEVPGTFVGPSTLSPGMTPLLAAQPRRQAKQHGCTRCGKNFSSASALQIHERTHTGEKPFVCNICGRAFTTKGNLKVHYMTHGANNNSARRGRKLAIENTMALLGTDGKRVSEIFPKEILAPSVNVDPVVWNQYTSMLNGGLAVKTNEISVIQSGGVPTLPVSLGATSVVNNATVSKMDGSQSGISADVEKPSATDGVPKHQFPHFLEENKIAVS
Method: universal PBM
Form: double-stranded DNA, one strand shown
Medium: in vitro
Tested at: 600 nM
Setting: 8-mer, flanks averaged, mean of replicates
Direction: higher = stronger binding
| Oligonucleotide | E-score |
| --- | --- |
| CACTGCAA | 0.0292 |
| AGACTCAG | -0.0745 |
| AGCATTAT | 0.306 |
| ACAAAAAG | 0.203 |
| ATACGCCC | -0.127 |
| AAAATTGC | 0.311 |
| TACCTGGA | -0.136 |
| CTCTTGGA | -0.0616 |
| CATTGCCG | -0.0949 |
| ATATGCGC | 0.138 |
| AGGTGTGA | -0.0238 |
| TAACGGCA | -0.0427 |
| ATGAAGTC | 0.0441 |
| GAAGTATC | 0.189 |
| AGATTGGC | -0.0648 |
| GGCCTAAC | -0.192 |
| ATAGAGGC | -0.0496 |
| ATCCAACC | -0.106 |
| TCATTAGA | 0.177 |
| AACGCATA | 0.137 |
| CCCGTTGC | -0.254 |
| AATCCTGC | 0.0194 |

Sample 2
Target: Histone acetyltransferase KAT6A, winged helix 2, GST fusion (KAT6A, Homo sapiens, UniProt Q92794, residues 85-181)
Method: protein binding microarray
Form: double-stranded DNA, one strand shown
Medium: in vitro
Tested at: not given
Setting: 8-mer, flanks averaged, mean of 2 arrays, mostly near background
Baseline: not given
Direction: higher = stronger binding
Target sequence (chain): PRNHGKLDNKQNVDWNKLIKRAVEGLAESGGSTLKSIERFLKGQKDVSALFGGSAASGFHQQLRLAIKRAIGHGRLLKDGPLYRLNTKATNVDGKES
| Oligonucleotide | E-score |
| --- | --- |
| GAACAGTC | -0.14 |
| GCCTCCGA | 0.0516 |
| AGATGAAT | -0.09 |
| CCGTATTA | -0.0164 |
| AGTGTCCG | 0.0266 |
| CGCCGTGA | 0.0567 |
| ATTGGTGG | -0.0283 |
| ATTGCTAG | 0.0286 |
| GGTCGCTA | -0.0507 |
| AGACGCTC | -0.125 |
| AAGCACAT | 0.0375 |
| GTTGGCAA | -0.103 |
| TTCGAAAA | 0.19 |
| ACATATTG | -0.0252 |
| CATCACGG | -0.137 |
| AGTAGTCA | -0.191 |
| CTGTGATC | -0.136 |
| ATTTTTCC | 0.00426 |

Sample 3
Target: RNA binding protein fox-1 homolog 2, RRM domain, GST-SBP tag (RBFOX2, Homo sapiens, UniProt O43251-10, residues 100-194)
Method: RNA Bind-n-Seq
Form: RNA
Medium: in vitro
Tested at: 365 nM
Setting: natural RNA segment, single round, ends assumed
Baseline: no-protein control
Direction: higher = stronger binding
All sequences stand within: GGGAGUUCUACAGUCCGACGAUC … UGGAAUUCUCGGGUGCCAA
Residues (chain): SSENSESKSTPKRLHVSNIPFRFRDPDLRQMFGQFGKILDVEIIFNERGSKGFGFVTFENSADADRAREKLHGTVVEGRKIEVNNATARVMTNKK
| Oligonucleotide | RBNS enrichment (R) |
| --- | --- |
| GAGCCAUUGGGCUUGGUUUGGUAUUGACAGGGUCAUCCUGAGGGGUUAGCAGUGGUAGAGAGCAAGGCAAGUGAUCUCUCCAGCUACCUGCCAGCAGUAGAGAGAGAGAG | 1.82 |
| GAAACACGCAUCAUGGGUCCCUGAUCUAUGAAAUGAACACAACCUCUCUGAGGCUGGAUGAUCUGGAGGAAGGGGGCAUGGAGCAAAUUUGAGGCUCUGAUUGCUGAGCC | 0.533 |
| UUUGAGACGAGGGUGAGGGAAUGUGGUGGCCACAAAAGAACAGGGACUUGCAGCACAAAUGUCACUUCUGUCUCCCUUUUCAGUGGUAGCACGGAGGAGGAGGUGCUGCG | 5.91 |
| UUUUCAGUCUCAAACUUUCUGCAUACUUUGCCUCCUUUAAAAGUUACAAAUAUUACAAAGUAAAAUCUAGCGUCAUAUCCAAUUCUUCCAAAUGACCUCUAUCAGCUGUU | 0.878 |
| AAAAUGAUUGUAUAUAGUAUUCUUAAAACCAUGUGUCUUGGUGCAGAAAUAUUGACAAAUGCUGGCCAGCUUUAUCUUCCUAUAUCCUUCAUUAAAAGUAUAUGCAUAUA | 0.546 |
| GACUCUACACAAGAUUAUUUAACAGGACACUAAGAUGGGGAAACGUCCUCGUGAGAUGAGAGCCUGAGCCAGGCAGCAGAGCGCUCGCUGCUGUGUAGACUGUAGGCUGC | 0.617 |
| AAACCCAGCUCCCUUCUUCCCUAGCCUGGUGCUUCUCCUCUCCUAGCCCCUGUCAUGGUGUCCAGACAGAGCCCUGUGAGGCUGGGUCCAAUUGUGGCACUUGGGGCACC | 0.558 |
| CUCCAACUCCCAUGCUGUGCGUGUCCCUCUGAGAACCAACUGAGGCUAGAACCCUAGGGUCCCUGCUGAGUUCCACAGGGGUGGCCAUCACACACCUGUAUCCCUGGUAU | 0.344 |

Sample 4
Target: Interferon regulatory factor 7, full length, phosphomimetic (IRF7, Homo sapiens, UniProt Q92985, residues 1-503, S101K/S471D/S472D/S475D/S476D/S477D/S483D/S484D/S487D)
Sequence of UniProt Q92985 (whole entry, unmodified, looked up): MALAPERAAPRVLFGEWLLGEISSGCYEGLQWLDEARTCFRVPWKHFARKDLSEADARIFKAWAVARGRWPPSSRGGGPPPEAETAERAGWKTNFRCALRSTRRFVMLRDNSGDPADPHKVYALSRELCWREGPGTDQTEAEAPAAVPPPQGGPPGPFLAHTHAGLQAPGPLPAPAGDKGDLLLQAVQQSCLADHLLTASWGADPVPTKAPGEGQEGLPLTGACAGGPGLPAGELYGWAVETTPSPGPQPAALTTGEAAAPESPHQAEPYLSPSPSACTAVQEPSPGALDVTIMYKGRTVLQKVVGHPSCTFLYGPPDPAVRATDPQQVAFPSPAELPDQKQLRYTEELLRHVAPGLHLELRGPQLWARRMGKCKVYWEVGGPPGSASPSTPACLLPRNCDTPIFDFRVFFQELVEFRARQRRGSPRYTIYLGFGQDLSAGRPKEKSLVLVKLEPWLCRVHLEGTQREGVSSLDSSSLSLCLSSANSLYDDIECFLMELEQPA
Method: protein-binding microarray
Form: double-stranded DNA, one strand shown
Medium: in vitro
Tested at: 250 nM
Setting: 60-bp whole probe
With: salmon DNA 0.4 mg/ml
Baseline: random background probes
Direction: higher = stronger binding
All sequences stand within: GCCTAGCAC … GTCTTGATTCGCTTGACGCTGCTG
| Oligonucleotide | log fluorescence [z-score] |
| --- | --- |
| TTAGACCTCAGACTGGATTAGTGCTAG | 0.0799 |
| TTAGGTATCGGGATTGGGTTAGTGCTA | 0.632 |
| GACGGTTTCCTTTCTCTGACGTGCTAG | 6.02 |
| GGCGGACTGCTTATCCTGACGTGCTAG | -0.989 |
| GACGGTTTCGGGACTGCGGACGTGCTA | 4.51 |
| TAAGGACTGGGGACTGGGTTAGTGCTA | -0.471 |
| AAAGATTTACAAACTGTGAGGGTGCTA | -0.231 |
| GGCGATCTCAGACTGGAGACGTGCTAG | -0.98 |
| TTAAAACTGAGACTGGATTAGTGCTAG | -0.0764 |
| TTAGATATCGGGAGTGGATTAGTGCTA | -0.324 |
| TTAGGACTGGGTTTCGTTTAGTGCTAG | 6.76 |
| TCATCTTTCCACTTGTCACTGTGCTAG | 1.91 |
| GACGACATCGGGTTTCGAGACGTGCTA | 2.21 |
| ACTCGTGTTTTTCTCCTATTGTGCTAG | 1.56 |
| GACGGTCTCCTTTGCCTGACGTGCTAG | 0.053 |
| GACGGTTTCCTTCTCTTGACGTGCTAG | 3.04 |
| TTCATTATTGCTTCCTCTTTGTGCTAG | 0.869 |
| TCAACTAGCGGGTCTTGCACTGTGCTA | -0.735 |
| GACGGTATCCGACTGCTGACGTGCTAG | -0.451 |

Sample 5
Target: Centromere-binding protein 1, full length, His-tagged (CBF1, Saccharomyces cerevisiae, UniProt P17106, residues 1-351)
Sequence of UniProt P17106 (whole entry, looked up): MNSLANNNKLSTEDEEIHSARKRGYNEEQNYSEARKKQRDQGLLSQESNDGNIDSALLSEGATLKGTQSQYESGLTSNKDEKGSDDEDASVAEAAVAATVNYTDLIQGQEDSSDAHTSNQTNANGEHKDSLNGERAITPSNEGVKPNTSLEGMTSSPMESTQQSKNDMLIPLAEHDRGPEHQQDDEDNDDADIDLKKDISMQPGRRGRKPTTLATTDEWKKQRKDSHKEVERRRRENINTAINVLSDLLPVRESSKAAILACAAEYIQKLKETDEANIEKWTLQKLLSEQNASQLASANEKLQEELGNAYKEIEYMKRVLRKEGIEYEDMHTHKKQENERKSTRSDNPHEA
Method: competition protein-binding microarray
Form: double-stranded DNA, one strand shown
Medium: in vitro
Tested at: 2 µM
Setting: whole 60-bp probe, lowest competitor level
With: Pho4 competitor, 0.05 µM
Direction: higher = stronger binding
All sequences stand within: … GTCTTGATTCGCTTGACGCTGCTG
| Oligonucleotide | fluorescence intensity |
| --- | --- |
| AGGCCCTAGGGGCCGTGCGTGGAGTAAAAAGGTTTG | 52.5 a.u. |
| CTTTCCCGATCTTGACCGGTGGGTGTAGCACATTTG | 60.8 a.u. |
| CAGTGGAAACAAGAAAACGTGCTAAATCCAGAACTC | 236 a.u. |
| AGTGGGCTTTCTTGTCATGCCACTCAAGTTACAAGC | 99.5 a.u. |
| GTCTTGTCTCATTGACCCGTGGGTGTCCCCACTTCA | 72.4 a.u. |
| CGTCCTAGTGATTGTCTTGTGGGTGCCATGAGGAAG | 84.7 a.u. |
| CCATCAAGTGTTCGTCACGTTTTTGCCGCCGAACTC | 850 a.u. |
| CTTCTGTAAATTTGGTATGTGGGTGGACGCGCCCCG | 91.9 a.u. |
| CATACCCAACCTTTTCACGTGCTTTAAGATATTTGT | 1630 a.u. |
| CATACCCAACCTTGATACGTGGGTGAAGATATTTGT | 70.4 a.u. |
| CCTTGGTTGACTGCAAACGTGTGGAAATACGGAAAG | 91.9 a.u. |
| CTTCTGTAAATTTGTCACTAGACTTGACGCGCCCCG | 93.9 a.u. |
| ATTTCTTTTTTTCTACACGTTGGTCTGATGTCTCAG | 87.9 a.u. |
| CTTTCCCGATCTTGCAACGTGGGTGTAGCACATTTG | 77.3 a.u. |
| CTATTACGGGCTTGGCTTGTGAAACTTTTCCTATAT | 94.1 a.u. |
| AAGCTGAAGGTGCATTGCATGACGCACTATGTGTGG | 66.2 a.u. |
| CTTCTGTAAATTTGGTTAGTGGGTGGACGCGCCCCG | 77.4 a.u. |
| GTCTTGTCTCATTGCTAGGTGGGTGTCCCCACTTCA | 74.8 a.u. |
| CGTCCTAGTGATTGCGTTGTGGGTGCCATGAGGAAG | 82.1 a.u. |

Some of these lines once more (sample 2):
| Oligonucleotide | E-score |
| --- | --- |
| AGTAGTCA | -0.191 |
| ACATATTG | -0.0252 |
| AGACGCTC | -0.125 |
| CATCACGG | -0.137 |
| GCCTCCGA | 0.0516 |
| GGTCGCTA | -0.0507 |
| ATTGCTAG | 0.0286 |
| CGCCGTGA | 0.0567 |
| CTGTGATC | -0.136 |
| AAGCACAT | 0.0375 |
| AGATGAAT | -0.09 |
| ATTTTTCC | 0.00426 |
